Assay results from different studies.
Several values in a cell are separate wells, animals, samples, runs or records. ± gives the spread as reported.
GLP1R: Glucagon-like peptide 1 receptor (GLP1R, Homo sapiens, UniProt P43220)
T1: RNA aptamer; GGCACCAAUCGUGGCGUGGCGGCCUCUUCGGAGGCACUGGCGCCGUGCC
Sequence of UniProt Q64663 (whole entry, unmodified, looked up): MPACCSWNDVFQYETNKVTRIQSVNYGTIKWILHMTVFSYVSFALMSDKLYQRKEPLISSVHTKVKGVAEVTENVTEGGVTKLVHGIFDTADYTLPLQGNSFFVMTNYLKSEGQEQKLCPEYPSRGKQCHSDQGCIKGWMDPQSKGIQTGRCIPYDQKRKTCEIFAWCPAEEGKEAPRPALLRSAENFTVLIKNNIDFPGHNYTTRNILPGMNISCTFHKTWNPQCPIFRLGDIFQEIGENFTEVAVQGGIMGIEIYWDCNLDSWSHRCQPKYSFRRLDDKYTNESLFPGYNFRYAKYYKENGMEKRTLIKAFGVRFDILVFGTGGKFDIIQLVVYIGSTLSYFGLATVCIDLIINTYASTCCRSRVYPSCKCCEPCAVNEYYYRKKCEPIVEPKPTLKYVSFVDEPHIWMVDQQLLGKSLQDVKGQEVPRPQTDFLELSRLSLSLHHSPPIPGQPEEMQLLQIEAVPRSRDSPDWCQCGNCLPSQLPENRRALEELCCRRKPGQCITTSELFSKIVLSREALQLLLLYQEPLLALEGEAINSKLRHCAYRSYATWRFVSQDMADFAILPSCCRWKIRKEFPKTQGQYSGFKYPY
Sequence of UniProt Q9UM73 (whole entry, looked up): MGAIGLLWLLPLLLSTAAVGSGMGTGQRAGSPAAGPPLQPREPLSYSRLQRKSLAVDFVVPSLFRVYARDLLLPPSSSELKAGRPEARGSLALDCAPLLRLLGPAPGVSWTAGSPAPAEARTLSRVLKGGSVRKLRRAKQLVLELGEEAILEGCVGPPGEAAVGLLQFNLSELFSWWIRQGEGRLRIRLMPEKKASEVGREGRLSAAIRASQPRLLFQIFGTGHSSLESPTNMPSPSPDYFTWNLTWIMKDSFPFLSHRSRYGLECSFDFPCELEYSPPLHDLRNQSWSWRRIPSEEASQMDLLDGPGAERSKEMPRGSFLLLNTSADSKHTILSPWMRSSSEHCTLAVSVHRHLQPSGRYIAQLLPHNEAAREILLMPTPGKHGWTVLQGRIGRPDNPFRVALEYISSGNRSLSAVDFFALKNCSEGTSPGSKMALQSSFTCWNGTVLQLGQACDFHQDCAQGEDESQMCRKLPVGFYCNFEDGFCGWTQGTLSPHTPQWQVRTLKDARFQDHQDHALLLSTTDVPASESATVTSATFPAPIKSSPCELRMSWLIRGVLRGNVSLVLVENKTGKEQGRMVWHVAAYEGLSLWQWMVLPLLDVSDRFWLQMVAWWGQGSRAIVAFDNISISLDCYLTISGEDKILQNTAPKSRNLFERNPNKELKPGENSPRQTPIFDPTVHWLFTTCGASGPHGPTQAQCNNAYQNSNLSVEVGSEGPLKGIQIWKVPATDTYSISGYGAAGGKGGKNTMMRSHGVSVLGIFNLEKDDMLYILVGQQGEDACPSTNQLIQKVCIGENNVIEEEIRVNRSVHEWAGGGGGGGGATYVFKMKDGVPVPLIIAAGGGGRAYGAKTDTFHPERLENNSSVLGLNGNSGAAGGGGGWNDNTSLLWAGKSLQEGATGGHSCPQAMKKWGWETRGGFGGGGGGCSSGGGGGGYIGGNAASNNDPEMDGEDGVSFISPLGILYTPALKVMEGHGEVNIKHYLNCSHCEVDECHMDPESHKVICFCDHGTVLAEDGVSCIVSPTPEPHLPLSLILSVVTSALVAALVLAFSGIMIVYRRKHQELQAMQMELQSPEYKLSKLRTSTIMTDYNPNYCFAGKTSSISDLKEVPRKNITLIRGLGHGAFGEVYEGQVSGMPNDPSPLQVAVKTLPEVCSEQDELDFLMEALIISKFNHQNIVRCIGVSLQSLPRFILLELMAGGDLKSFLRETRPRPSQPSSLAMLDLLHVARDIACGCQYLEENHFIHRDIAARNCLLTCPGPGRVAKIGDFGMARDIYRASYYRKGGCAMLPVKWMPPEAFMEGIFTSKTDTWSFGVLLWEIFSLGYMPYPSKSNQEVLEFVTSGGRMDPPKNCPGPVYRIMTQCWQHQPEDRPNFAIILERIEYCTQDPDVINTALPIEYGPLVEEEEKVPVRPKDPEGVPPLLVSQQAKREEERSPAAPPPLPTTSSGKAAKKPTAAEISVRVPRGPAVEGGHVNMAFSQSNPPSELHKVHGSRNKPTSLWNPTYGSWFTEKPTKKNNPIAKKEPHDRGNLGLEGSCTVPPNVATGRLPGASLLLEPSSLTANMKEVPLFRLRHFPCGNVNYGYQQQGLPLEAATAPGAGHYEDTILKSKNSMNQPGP
Sequence of UniProt Q9HC35 (whole entry, looked up): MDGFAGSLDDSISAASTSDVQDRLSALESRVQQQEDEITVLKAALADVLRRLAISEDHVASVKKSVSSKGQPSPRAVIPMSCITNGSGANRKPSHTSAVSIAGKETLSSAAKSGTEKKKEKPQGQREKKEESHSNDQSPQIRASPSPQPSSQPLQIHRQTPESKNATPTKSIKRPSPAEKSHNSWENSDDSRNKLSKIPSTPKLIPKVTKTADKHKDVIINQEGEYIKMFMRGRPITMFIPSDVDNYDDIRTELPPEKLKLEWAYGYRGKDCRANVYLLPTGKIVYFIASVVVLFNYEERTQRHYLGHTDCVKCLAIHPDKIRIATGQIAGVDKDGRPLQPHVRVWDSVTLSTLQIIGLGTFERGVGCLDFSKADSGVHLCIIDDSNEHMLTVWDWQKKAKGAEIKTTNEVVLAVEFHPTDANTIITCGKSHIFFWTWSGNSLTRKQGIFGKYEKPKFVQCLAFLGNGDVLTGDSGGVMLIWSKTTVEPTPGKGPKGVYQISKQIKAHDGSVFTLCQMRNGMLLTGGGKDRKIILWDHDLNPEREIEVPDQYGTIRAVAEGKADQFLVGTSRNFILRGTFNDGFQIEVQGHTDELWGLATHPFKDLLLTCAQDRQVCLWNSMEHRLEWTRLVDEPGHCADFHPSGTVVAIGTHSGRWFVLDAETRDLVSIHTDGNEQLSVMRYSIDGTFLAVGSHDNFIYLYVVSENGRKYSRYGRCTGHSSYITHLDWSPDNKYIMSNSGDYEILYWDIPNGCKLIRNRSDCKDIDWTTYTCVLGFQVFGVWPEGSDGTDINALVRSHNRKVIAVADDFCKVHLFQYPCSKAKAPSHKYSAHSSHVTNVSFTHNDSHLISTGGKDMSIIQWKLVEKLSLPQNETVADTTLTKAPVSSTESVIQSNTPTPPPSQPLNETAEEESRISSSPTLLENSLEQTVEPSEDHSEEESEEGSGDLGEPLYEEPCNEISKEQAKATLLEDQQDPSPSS
Sequence of UniProt P11388 (whole entry, looked up): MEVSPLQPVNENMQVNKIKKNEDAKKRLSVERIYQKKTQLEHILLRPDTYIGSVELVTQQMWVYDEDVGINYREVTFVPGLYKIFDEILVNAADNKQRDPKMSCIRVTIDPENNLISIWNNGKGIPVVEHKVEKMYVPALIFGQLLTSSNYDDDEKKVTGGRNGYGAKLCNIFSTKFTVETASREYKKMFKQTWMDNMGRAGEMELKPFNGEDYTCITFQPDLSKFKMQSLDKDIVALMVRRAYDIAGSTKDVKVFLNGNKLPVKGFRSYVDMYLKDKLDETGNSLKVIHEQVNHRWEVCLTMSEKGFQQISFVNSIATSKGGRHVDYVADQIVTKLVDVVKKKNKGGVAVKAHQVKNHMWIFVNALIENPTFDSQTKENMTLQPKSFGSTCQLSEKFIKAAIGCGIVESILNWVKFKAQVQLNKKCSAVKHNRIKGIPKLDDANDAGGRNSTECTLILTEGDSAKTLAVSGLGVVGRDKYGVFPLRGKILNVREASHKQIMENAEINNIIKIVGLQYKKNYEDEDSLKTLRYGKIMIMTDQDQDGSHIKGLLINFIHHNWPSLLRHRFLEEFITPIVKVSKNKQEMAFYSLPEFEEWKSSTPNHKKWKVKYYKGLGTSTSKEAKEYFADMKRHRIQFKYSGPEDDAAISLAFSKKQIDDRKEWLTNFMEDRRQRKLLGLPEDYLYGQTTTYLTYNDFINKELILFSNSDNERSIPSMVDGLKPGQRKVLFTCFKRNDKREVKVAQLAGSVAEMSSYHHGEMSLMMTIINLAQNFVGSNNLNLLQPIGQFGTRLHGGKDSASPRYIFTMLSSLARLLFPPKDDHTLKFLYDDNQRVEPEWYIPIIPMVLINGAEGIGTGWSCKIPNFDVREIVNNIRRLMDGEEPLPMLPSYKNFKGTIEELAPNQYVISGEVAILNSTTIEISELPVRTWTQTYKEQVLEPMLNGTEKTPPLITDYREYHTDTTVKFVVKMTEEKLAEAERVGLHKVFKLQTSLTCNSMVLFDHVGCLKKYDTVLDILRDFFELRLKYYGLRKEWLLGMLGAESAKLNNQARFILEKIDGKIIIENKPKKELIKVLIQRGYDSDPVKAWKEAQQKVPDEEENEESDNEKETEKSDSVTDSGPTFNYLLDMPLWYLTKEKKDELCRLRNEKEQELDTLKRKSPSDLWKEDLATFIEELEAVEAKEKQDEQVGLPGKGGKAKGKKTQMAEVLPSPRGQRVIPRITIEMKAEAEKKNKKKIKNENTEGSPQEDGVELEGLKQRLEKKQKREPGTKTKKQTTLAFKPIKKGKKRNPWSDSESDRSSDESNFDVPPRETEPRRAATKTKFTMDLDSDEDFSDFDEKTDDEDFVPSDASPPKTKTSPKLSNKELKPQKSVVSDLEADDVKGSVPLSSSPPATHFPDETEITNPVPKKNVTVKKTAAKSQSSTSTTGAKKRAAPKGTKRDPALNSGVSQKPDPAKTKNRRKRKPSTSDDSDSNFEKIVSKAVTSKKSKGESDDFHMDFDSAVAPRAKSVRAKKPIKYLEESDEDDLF
Sequence of UniProt Q9Y3R4 (whole entry, looked up): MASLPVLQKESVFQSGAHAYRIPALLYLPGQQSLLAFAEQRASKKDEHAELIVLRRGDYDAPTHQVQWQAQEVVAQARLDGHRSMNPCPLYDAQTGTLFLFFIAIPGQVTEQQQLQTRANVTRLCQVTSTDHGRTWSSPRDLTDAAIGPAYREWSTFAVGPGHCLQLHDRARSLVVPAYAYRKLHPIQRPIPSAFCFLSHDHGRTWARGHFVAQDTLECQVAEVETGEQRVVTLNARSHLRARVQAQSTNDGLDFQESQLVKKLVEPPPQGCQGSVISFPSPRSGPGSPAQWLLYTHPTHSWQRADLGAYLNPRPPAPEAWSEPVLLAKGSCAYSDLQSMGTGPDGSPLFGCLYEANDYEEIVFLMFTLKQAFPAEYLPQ

For `Nc1ncnc2c1ncn2[C@@H]1O[C@H](COP(=O)(O)OP(=O)(O)OP(=O)(O)O)[C@@H](O)[C@H]1O`, the normalized current was 0.939 and 0.967 and 1 (P2X purinoceptor 7 (P2rx7, Rattus norvegicus, UniProt Q64663, Q143A/R125A); ion current, agonist, two-electrode voltage clamp; Xenopus laevis oocytes; 500 µM; baseline: highest concentration response).
With `CC1(C)CN(CCCCC(=O)N[C@H](Cc2ccccc2)C(=O)N[C@H](Cc2ccccc2)C(=O)N[C@@H](CCCCNC(=O)CCCCCCC(=O)NCCCC[C@H](NC(=O)N[C@@H](CCC(=O)O)C(=O)O)C(=O)O)C(=O)O)CC[N]2CC(C)(C)[S][Tc]2(=[O])[S]1` (stereo partly drawn) [technetium-99m labelled] the Bmax was 4.7 ± 0.2 pmol/mg (FOLH1 (Homo sapiens, UniProt Q04609); radioligand, saturation binding; LNCaP; 1 h, 37 °C, with: [99mTc]TcO-6).
`COc1cc(N2CCC(N3CCN(C)CC3)CC2)ccc1Nc1ncc(Cl)c(Nc2ccccc2P(C)(C)=O)n1` gave a protein level of 1.07 and 1.09 and 0.986 (ALK tyrosine kinase receptor/Echinoderm microtubule-associated protein-like 4 (Homo sapiens, UniProt Q9HC35+Q9UM73); degrader, immunoblotting, item: ALK tyrosine kinase receptor/Echinoderm microtubule-associated protein-like 4; Ba/F3 EML4-ALK; concentration not given, 0.5 h, unit not given; baseline: untreated).
`CC[C@H](C)[C@H](NC(=O)[C@H](Cc1ccccc1)NC(=O)[C@H](CCC(=O)O)NC(=O)[C@H](CCCNC(=N)N)NC(=O)[C@H](C)NC(=O)[C@H](C)NC(=O)[C@H](CCC(N)=O)NC(=O)[C@H](CCCCNc1c(NCCCCCN(O)C(=O)CCC(=O)NCCCCCN(O)C(=O)CCC(=O)NCCCCCN(O)C(C)=O)c(=O)c1=O)NC(=O)[C@H](CCC(=O)O)NC(=O)[C@H](CC(C)C)NC(=O)[C@H](Cc1ccc(O)cc1)NC(=O)[C@H](CO)NC(=O)[C@H](CO)NC(=O)[C@@H](NC(=O)[C@H](CC(=O)O)NC(=O)[C@H](CO)NC(=O)[C@@H](NC(=O)[C@H](Cc1ccccc1)NC(=O)[C@@H](NC(=O)CNC(=O)[C@H](CCC(=O)O)NC(=O)[C@H](C)NC(=O)CCc1cnc[nH]1)[C@@H](C)O)[C@@H](C)O)C(C)C)C(=O)N[C@@H](C)C(=O)N[C@@H](Cc1c[nH]c2ccccc12)C(=O)N[C@@H](CC(C)C)C(=O)N[C@H](C(=O)N[C@@H](CCCCNc1c(NCCCCCN(O)C(=O)CCC(=O)NCCCCCN(O)C(=O)CCC(=O)NCCCCCN(O)C(C)=O)c(=O)c1=O)C(=O)NCC(=O)N[C@@H](CCCNC(=N)N)C(=O)N[C@@H](CCCCNC(=O)COCCOCCNC(=O)COCCOCCNC(=O)CC[C@H](NC(=O)CCCCCCCCCCCCCCCCC(=O)O)C(=O)O)C(=O)O)C(C)C`: “fold potency loss” 20.2 (GLP1R; agonist, CRE luciferase reporter; BHK cells; metal-free DFO conjugate, with: 1% HSA; baseline: parent peptide).
`CC[C@@H](C)[C@@H](NC(=O)[C@@H](Cc1ccc(O)cc1)NC(=O)[C@H]1CCCN1C(=O)[C@@H](CCCNC(=N)N)NC(=O)[C@H](N)Cc1c[nH]cn1)C(=O)N[C@H](C)C(=O)N[C@H](Cc1c[nH]cn1)C(=O)N[C@H](CCCNC(=N)N)C(=O)N[C@@H](C(=O)N[C@H](Cc1ccc(O)cc1)C(=O)N[C@H](CO)C(=O)N[C@H](Cc1ccccc1)C(N)=O)C(C)C` — result for “surface TFRC expression”: 0.836 (Transferrin receptor protein 1 (Tfrc, Mus musculus, UniProt Q62351); flow cytometry; MC-38; 6 h, unit not given; baseline: 0 h).
`COc1ccccc1-c1n[nH]c2nc(N[C@H]3CC[C@H](NS(=O)(=O)CCCOCCOCCNC(=O)OC(C)(C)C)CC3)ncc12`: “log2 SILAC ratio heavy/light” 2.81 (Leishmania donovani STE11 (LinJ.24.1500); resin binding competition; promastigote lysate; 10 µM; baseline: DMSO).
With `COc1cc(Cl)c(C(=O)N[C@@H](CN[C@H]2CC[C@@H](N)CC2)Cc2ccc(C#N)cc2)cc1-c1ccc(CN[C@H](C)c2ccc(C)cc2)o1` the ΔTm was 4.5 °C (ATPase family AAA domain-containing protein 2, bromodomain (ATAD2, Homo sapiens, UniProt Q6PL18); thermal shift; 25 µM, GST-tagged protein).
The ΔH of `Nc1ncnc2c1ncn2[C@@H]1O[C@H](CO[P@](=O)(O)O[P@](=O)(O)O[P@@](=O)(O)S)[C@@H](O)[C@H]1O` is reported as -0.196 kcal/mol (GUK1 (Homo sapiens, UniProt Q16774); binding, isothermal titration calorimetry; molar ratio 3.506, fitted curve).
The selectivity ratio of `O=C(O)c1ccc(Nc2c(-c3ccc(-c4ccccc4)cc3)nc3ccc(C(=O)O)cn23)cc1` is reported as greater than 34 (TDP2 (Homo sapiens, UniProt O95551); gel-based fluorescence; baseline: TDP1 IC50 over TDP2 IC50).
`CC(=O)N[C@H]1[C@H]([C@H](O)[C@H](O)CO)OC(O[C@H]2[C@@H](O)[C@@H](CO)O[C@@H](Oc3ccc([N+](=O)[O-])cc3)[C@@H]2O)(C(=O)O)C[C@@H]1O` (stereo partly drawn): “sialic acid release” 75% (Sialidase-2 (Homo sapiens, UniProt Q9Y3R4); substrate; 0.3 mM, 30 min, pH 5.0, 37 °C).
With `C[S+](CC[C@H](N)C(=O)[O-])C[C@H]1O[C@@H](n2cnc3c(N)ncnc32)[C@H](O)[C@@H]1O` (stereo partly drawn) the apparent Vmax was 1.6 ± 0.1 µM/min (KMT2C (Homo sapiens, UniProt Q8NEZ4); substrate, enzyme-coupled methylation; with: H3 peptide 200 µM).
For `CC[C@H](C)[C@H](NC(=O)[C@H](Cc1ccccc1)NC(=O)[C@H](CCC(=O)O)NC(=O)[C@H](CCCNC(=N)N)NC(=O)[C@H](C)NC(=O)[C@H](C)NC(=O)[C@H](CCC(N)=O)NC(=O)[C@H](CCC(=O)O)NC(=O)[C@H](CCC(=O)O)NC(=O)[C@H](CC(C)C)NC(=O)[C@H](Cc1ccc(O)cc1)NC(=O)[C@H](CO)NC(=O)[C@H](CO)NC(=O)[C@@H](NC(=O)[C@H](CC(=O)O)NC(=O)[C@H](CO)NC(=O)[C@@H](NC(=O)[C@H](Cc1ccccc1)NC(=O)[C@@H](NC(=O)CNC(=O)[C@H](CCC(=O)O)NC(=O)[C@H](C)NC(=O)CCc1cnc[nH]1)[C@@H](C)O)[C@@H](C)O)C(C)C)C(=O)N[C@@H](C)C(=O)N[C@@H](Cc1c[nH]c2ccccc12)C(=O)N[C@@H](CC(C)C)C(=O)N[C@H](C(=O)N[C@@H](CCCNC(=N)N)C(=O)NCC(=O)N[C@@H](CCCNC(=N)N)C(=O)N[C@@H](CCCCNC(=O)COCCOCCNC(=O)COCCOCCNC(=O)CC[C@H](NC(=O)CCCCCCCCCCCCCCCCC(=O)O)C(=O)O)C(=O)NCC(=O)NCC(=O)N[C@@H](CO)C(=O)N[C@@H](CCCCNC(=O)[C@H](CCCCNC(=O)[C@H](CCCCNc1c(NCCCCCN(O)C(=O)CCC(=O)NCCCCCN(O)C(=O)CCC(=O)NCCCCCN(O)C(C)=O)c(=O)c1=O)Nc1c(NCCCCCN(O)C(=O)CCC(=O)NCCCCCN(O)C(=O)CCC(=O)NCCCCCN(O)C(C)=O)c(=O)c1=O)NC(=O)[C@H](CCCCNc1c(NCCCCCN(O)C(=O)CCC(=O)NCCCCCN(O)C(=O)CCC(=O)NCCCCCN(O)C(C)=O)c(=O)c1=O)Nc1c(NCCCCCN(O)C(=O)CCC(=O)NCCCCCN(O)C(=O)CCC(=O)NCCCCCN(O)C(C)=O)c(=O)c1=O)C(=O)O)C(C)C`, “fold potency loss” read 3.1 (GLP1R; agonist, CRE luciferase reporter; BHK cells; Zr-loaded DFO conjugate, with: 1% HSA; baseline: parent peptide).
With `CC1(C)CC2(C)OC(=O)NC2(C)c2ccccc21` (stereo not drawn) the fold enrichment was 0.833 (Transcription intermediary factor 1-beta, PHD-bromodomain (TRIM28, Homo sapiens, UniProt Q13263); binding, affinity selection mass spectrometry; baseline: other proteins in batch).
The ΔG° of `NCC[C@H](O)C(=O)N[C@@H]1C[C@H](N)[C@@H](O[C@H]2O[C@H](CN)[C@@H](O)[C@H](O)[C@H]2O)[C@H](O)[C@H]1O[C@H]1O[C@H](CO)[C@@H](O)[C@H](N)[C@H]1O` is reported as -7.43 kcal/mol (Albumin (ALB, Bos taurus, UniProt P02769); binding, tryptophan fluorescence quenching; pH 7.4, 283 K).
`O=c1nc(SCc2cc(F)cc(C(F)(F)F)c2)nc(SCc2ccc3nc(Cl)ccc3c2)[nH]1`: “ATP hydrolysis rate” 0.425 µM/min and 2.77 µM/min (TOP2A (Homo sapiens, UniProt P11388); ATPase activity; 125 µM, with: ATP 2 mM).
`CN1CCN(c2ccc3nc(-c4c(N)c5c(F)cccc5[nH]c4=O)[nH]c3c2)CC1`: “luminescence signal reduction” 1.94% (NanoBiT HiBiT/LgBiT luciferase; inhibitor, HiBiT luminescence counterscreen; conditioned medium only; 1.66 µM, 24 h; baseline: vehicle).
For `C[C@@H]1CCN(C(=O)CCl)[C@@H](C(N)=O)C1`, the cysteine occupancy was 3.8% (human NEDD9 full length; LC-MS peptide mapping, item: Cys18; 50 µM, 0.5 h).
With `COc1cc(Nc2ncc3c(n2)-c2ccc(Cl)cc2C(c2c(F)cccc2OC)=NC3)ccc1C(=O)O` the remaining activity was 97% (MRCK beta (CDC42BPB); inhibitor, biochemical kinase; 1 µM).
`Nc1nnc(-c2ccccc2O)cc1N1CCN(Cc2ccc(OCCOCCNc3cccc4c3C(=O)N(C3CCC(=O)NC3=O)C4=O)c(F)c2)CC1` (stereo not drawn) has a Dmax of 35% (SMARCA4 (Homo sapiens, UniProt P51532); degrader, immunoblot; SMARCA4 wild-type lung cancer cells; 96 h, median of twelve cell lines).
For `CC[C@H](C)[C@H](NC(=O)[C@H](Cc1ccccc1)NC(=O)[C@H](CCC(=O)O)NC(=O)[C@H](CCCNC(=N)N)NC(=O)[C@H](C)NC(=O)[C@H](C)NC(=O)[C@H](CCC(N)=O)NC(=O)[C@H](CCC(=O)O)NC(=O)[C@H](CCC(=O)O)NC(=O)[C@H](CC(C)C)NC(=O)[C@H](Cc1ccc(O)cc1)NC(=O)[C@H](CO)NC(=O)[C@H](CO)NC(=O)[C@@H](NC(=O)[C@H](CC(=O)O)NC(=O)[C@H](CO)NC(=O)[C@@H](NC(=O)[C@H](Cc1ccccc1)NC(=O)[C@@H](NC(=O)CNC(=O)[C@H](CCC(=O)O)NC(=O)[C@H](C)NC(=O)CCc1cnc[nH]1)[C@@H](C)O)[C@@H](C)O)C(C)C)C(=O)N[C@@H](C)C(=O)N[C@@H](Cc1c[nH]c2ccccc12)C(=O)N[C@@H](CC(C)C)C(=O)N[C@H](C(=O)N[C@@H](CCCNC(=N)N)C(=O)NCC(=O)N[C@@H](CCCNC(=N)N)C(=O)N[C@@H](CCCCNC(=O)COCCOCCNC(=O)COCCOCCNC(=O)CC[C@H](NC(=O)CCCCCCCCCCCCCCCCC(=O)O)C(=O)O)C(=O)NCC(=O)NCC(=O)N[C@@H](CO)C(=O)N[C@@H](CCCCNc1c(NCCCCCN(O)C(=O)CCC(=O)NCCCCCN(O)C(=O)CCC(=O)NCCCCCN(O)C(C)=O)c(=O)c1=O)C(=O)NCC(=O)NCC(=O)N[C@@H](CO)C(=O)N[C@@H](CCCCNc1c(NCCCCCN(O)C(=O)CCC(=O)NCCCCCN(O)C(=O)CCC(=O)NCCCCCN(O)C(C)=O)c(=O)c1=O)C(=O)NCC(=O)NCC(=O)N[C@@H](CO)C(=O)N[C@@H](CCCCNc1c(NCCCCCN(O)C(=O)CCC(=O)NCCCCCN(O)C(=O)CCC(=O)NCCCCCN(O)C(C)=O)c(=O)c1=O)C(=O)NCC(=O)NCC(=O)N[C@@H](CO)C(=O)N[C@@H](CCCCNc1c(NCCCCCN(O)C(=O)CCC(=O)NCCCCCN(O)C(=O)CCC(=O)NCCCCCN(O)C(C)=O)c(=O)c1=O)C(=O)O)C(C)C`, “fold potency loss” read 3.6 (GLP1R; agonist, CRE luciferase reporter; BHK cells; Zr-loaded DFO conjugate, with: 1% HSA; baseline: parent peptide).
The Kd of `CN(CCO)c1ccc(/C=C(\C#N)c2ccc(C#N)cc2)cc1` is reported as 495 nM (T1, RNA aptamer; fluorescence titration, Hill fit; apparent).

Some of these lines once more:
`CN1CCN(c2ccc3nc(-c4c(N)c5c(F)cccc5[nH]c4=O)[nH]c3c2)CC1`: “luminescence signal reduction” 1.94% (NanoBiT HiBiT/LgBiT luciferase; inhibitor, HiBiT luminescence counterscreen; conditioned medium only; 1.66 µM, 24 h; baseline: vehicle).
For `C[C@@H]1CCN(C(=O)CCl)[C@@H](C(N)=O)C1`, the cysteine occupancy was 3.8% (human NEDD9 full length; LC-MS peptide mapping, item: Cys18; 50 µM, 0.5 h).
